Results of several laboratories.
In brackets after ≈: the same amount, converted by molar mass.

C[N+](C)(C)CCCCCNCC12CC3CC(CC(C3)C1)C2
IC50 (Plasmodium falciparum; 3D7): 10 µM

CCCCCn1cc(C(=O)Nc2cccc3ccccc23)c2ccccc21
apparent clearance (CL/F) (rat, plasma; intraperitoneal, 3 mg/kg, mean of 4): 18.8 mL/min/kg

O=C1c2c(O)c(=O)ccn2N([C@@H]2c3ccccc3SCc3c2ccc(F)c3F)[C@@H]2COCCN12
plasma concentration (BALB/c mice, plasma; oral, 15 mg/kg baloxavir marboxil, 0.5 h): 175 ng/mL

CCN(CC)C(=O)[C@@H]1C=C2c3cccc4[nH]cc(c34)C[C@H]2N(C)C1
List of Complaints score (item: hypersensitivity to cold; healthy volunteers; dose not given, 0 to 12 h; baseline: placebo, direction not given): 0

CCCCCCCCCCC(=O)O[C@H]1CC[C@H]2[C@@H]3CCC4=CC(=O)CC[C@]4(C)[C@H]3CC[C@]12C
testosterone level (human male serum; 500 ng/mL, NaF 100 mg/mL, baseline testosterone 441 ng/dL): 451 ng/dL

COC[C@@H](NC(C)=O)C(=O)NCc1ccccc1
elimination rate constant (healthy male volunteers, plasma; oral, 100 mg single dose): 0.058 h⁻¹

C=C(C)[C@@H]1CCC(C)=C[C@H]1c1c(O)cc(CCCCC)cc1O
AEs leading to withdrawal (human; 750 mg, trial 17075, with: fluconazole 400 mg): 0%

C#Cc1ccc2c(c1)C(c1ccccn1)=NCc1c(-c3cnco3)ncn1-2
solubility (thermodynamic equilibrium, UV; ethyl acetate; 24 h, 25 °C): 46.7 mg/mL (≈ 133 mM)

NC(=Nc1ccccc1)NC(=O)c1nc(Cl)c(N)nc1N
IC50 (Plasmodium falciparum; 7G8): 10 µM

CCCCCn1nc(C(=O)Nc2cccc3ccccc23)c2ccccc21
hepatic clearance (Sprague-Dawley rat liver microsomes; 1 µM): 51.5 mL/min/kg

OCc1ncc2n1-c1ccc(Cl)cc1C(c1ccccc1F)=NC2
Tmax (human, plasma; 7.5 mg midazolam, day 26, median, metabolite of midazolam, with: midazolam 7.5 mg alone): 30 min

Some of these lines once more:
C#Cc1ccc2c(c1)C(c1ccccn1)=NCc1c(-c3cnco3)ncn1-2
solubility (thermodynamic equilibrium, UV; ethyl acetate; 24 h, 25 °C): 46.7 mg/mL (≈ 133 mM)
